Experimental data from different studies.
Compare with care: the assays were run in different laboratories. Several values in a cell are separate wells, animals, samples, runs or records. Numbers after ± are the reported error.
Sequence of UniProt P10632 (whole entry, looked up): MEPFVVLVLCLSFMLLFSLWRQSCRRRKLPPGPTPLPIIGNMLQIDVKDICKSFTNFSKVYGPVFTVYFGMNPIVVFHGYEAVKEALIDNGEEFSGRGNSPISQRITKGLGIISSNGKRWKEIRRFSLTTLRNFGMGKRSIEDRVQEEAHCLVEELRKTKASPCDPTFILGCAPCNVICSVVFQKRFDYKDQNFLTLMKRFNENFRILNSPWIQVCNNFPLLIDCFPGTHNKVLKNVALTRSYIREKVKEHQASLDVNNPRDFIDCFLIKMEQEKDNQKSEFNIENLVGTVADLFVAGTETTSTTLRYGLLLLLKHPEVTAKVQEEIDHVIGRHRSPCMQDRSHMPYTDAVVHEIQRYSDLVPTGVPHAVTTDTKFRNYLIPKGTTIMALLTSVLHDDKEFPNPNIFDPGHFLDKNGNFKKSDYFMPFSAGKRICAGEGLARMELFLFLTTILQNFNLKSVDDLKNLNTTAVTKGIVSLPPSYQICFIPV

The apparent permeability of `N[C@@H](CNC(=O)N[C@@H](CS)C(=O)NCC(=O)O)C(=O)O` is reported as 9 ×10⁻⁶ cm/s (RPMI-2650; B-to-A, air-liquid interface).
`COc1cccc(OC)c1-c1cc(C(=O)NC2(C(=O)O)C3CC4CC(C3)CC2C4)nn1-c1ccc(C(=O)N(C)CCCN(C)C(=O)[C@H](CCCCNC(=O)[C@H](CC(C)C)NC(=O)C2OC2C(=O)O)NC(=O)CN2CCN(CC(=O)[O-])CCN(CC(=O)[O-])CCN(CC(=O)[O-])CC2)cc1C(C)C.[177Lu+3]` (mixture of isomers) gave a tracer uptake of 0.05 %ID/g (HT-29 tumour model; host not given, pancreas; 7 days, tumour-bearing).
For `COC(=O)Nc1nc2cc(C(O)c3ccc(F)cc3)ccc2[nH]1` (stereo not drawn), the revertants was 22 revertants/plate (Salmonella typhimurium; Ames preincubation test; TA98; 218.8 µg/plate, without S9).
`N#C[C@@H]1CC(F)(F)CN1C(=O)CNC(=O)c1ccnc2c(NC(=O)[C@@H](N)CCCCNC(=O)CCOCCOCCOCCOCCOCCOCCNC(=O)CN3CCN(CC(=O)[O-])CCN(CC(=O)[O-])CCN(CC(=O)[O-])CC3)cccc12.[177Lu+3]` gave a tracer uptake of 0.04 %ID/g (U-87 MG tumour model; host not given, muscle; 48 h, tumour-bearing).
`CCN(CC)CC#CCNc1ccnc2cc(Cl)ccc12` has a revertants of 13 revertants/well and 10 revertants/well (Salmonella typhimurium; mini-Ames test; TA97a; 62.5 µg/well, without S9).
`N#C[C@@H]1CC(F)(F)CN1C(=O)CNC(=O)c1ccnc2c(NC(=O)CCOCCOCCOCCOCCOCCOCCNC(=O)[C@H](CCCCNC(=O)CN3CCN(CC(=O)[O-])CCN(CC(=O)[O-])CCN(CC(=O)[O-])CC3)NC(=O)CCCc3ccc(I)cc3)cccc12.[177Lu+3]` has a tracer uptake of 0.9 %ID/g (U-87 MG tumour model; host not given, heart; 4 h, tumour-bearing).
For `O=C(Nc1cnccc1-c1ccc([18F])cc1)c1ccnc(NC(=O)C2CC2)c1`, the SUV was 0.93 ± 0.36 (FVB/NJ mouse, both sexes, brain; intravenous, 3 min post-injection, added: P-gp inhibitor tariquidar 15 mg/kg iv).
`O=C1C2CC3CC1CC(C(=O)N1CCN(c4ccc([N+](=O)[O-])c5ncccc45)CC1)(C3)C2`: “revertant colony count” 7 colonies/well (Salmonella typhimurium; Ames test; TA1535; 0.02 µg/well, without S9 activation).
`CN(C)c1ccc2c(c1)C(C)(C)c1cc(N(C)C)ccc1C21OC(=O)c2ccc(C(=O)O)cc21` gave a Kd of 410 ± 150 µM (Albumin (ALB, Homo sapiens, UniProt P02768); binding, fluorescence titration; PBS).
`COc1cccc(OC)c1-c1cc(C(=O)NC2(C(=O)O)C3CC4CC(C3)CC2C4)nn1-c1ccc(C(=O)NCCNC(=O)[C@H](CCCCNC(=O)[C@H](CC(C)C)NC(=O)C2OC2C(=O)O)NC(=O)CN2CCN(CC(=O)[O-])CCN(CC(=O)[O-])CCN(CC(=O)[O-])CC2)cc1C(C)C.[177Lu+3]` (mixture of isomers) has a tracer uptake of 0.66 %ID/g (HT-29 tumour model; host not given, pancreas; 4 h, tumour-bearing).
With `Cc1nc(Nc2ncc(C(=O)Nc3c(C)cccc3Cl)s2)cc(N2CCN(C(=O)CCOCCNC(=O)CN)CC2)n1` the viability was 90% and 92% (K562; cell growth or viability, CCK-8; 500 pM).
For `CNC(=O)C1CCCN(C(=O)C2CC3CCC2N3C(=O)[C@@H]2C[C@@H](O)CN2C(=O)NCc2cccc(Cl)c2F)C1` (mixture of isomers), the remaining activity was 99.1% and 94.5% and 86.4% (Cytochrome P450 2C8 (CYP2C8, Homo sapiens, UniProt P10632); preincubation with NADPH; human; 1.85 µM; relative to: negative control).
For `CC(C)OCCOCc1ccc(OCC(O)CN(N=O)C(C)C)cc1` (stereo not drawn), “revertant fold increase” read 16.6 fold (Salmonella typhimurium; Ames test; TA1535; 5000 µg/plate, 30 % hamster S9; relative to: solvent control).
`CC(C)Cc1ccc(C(C)C(=O)N[C@@H](CCCCNC(=O)CCOCCOCCOCCOCCOCCOCCNC(=O)CN2CCN(CC(=O)[O-])CCN(CC(=O)[O-])CCN(CC(=O)[O-])CC2)C(=O)Nc2cccc3c(C(=O)NCC(=O)N4CC(F)(F)C[C@H]4C#N)ccnc23)cc1.[177Lu+3]` (stereo partly drawn) gave a tracer uptake of 7.24 %ID/g (U-87 MG tumour model; host not given, bone; 4 h, tumour-bearing).
With `Cc1nc(N)nc2c1C(=O)N[C@@H](c1ccc(F)cc1-c1cccc(O[11CH3])n1)C2` the SUV was 0.6 ± 0.1 (radioligand, ex vivo biodistribution; mouse, MDA-MB-231 xenograft, tumour; 60 min p.i.).
`CCc1c(-c2ccc3[nH]ncc3c2)cnc(N)c1-c1ccc(O)cc1` gave a viability of 106% and 107% (CHP-212 resistant sublines (heterozygous USP7 V517F); cell viability; 3.125 µM).
For `C=C(NC(=O)c1csc(-c2nc3c(cc2O)-c2nc(cs2)C(=O)NC(C(C)O)C(=O)NC(=C(C)OC)c2nc(cs2)C(=O)NC2c4nc(cs4)C(=O)NC(COC(=O)c4c5c6c(cccc6n4O)COC(=O)C(OC4CC(C)(O)C(N(C)C)C(C)O4)C2OC5)c2nc-3cs2)n1)C(N)=O` (stereo not drawn), the AUC(0-t) was 773 ng·h/mL (ICR mice, Streptococcus pneumoniae ATCC 49169 infected, immunocompromised, blood; intravenous, 8 mg/kg/day twice daily).
For `COc1cccc(OC)c1-c1cc(C(=O)NC2(C(=O)O)C3CC4CC(C3)CC2C4)nn1-c1ccc(C(=O)N(C)CCOCCOCCN(C)C(=O)[C@H](CCCCNC(=O)[C@H](CC(C)C)NC(=O)C2OC2C(=O)O)NC(=O)CN2CCN(CC(=O)[O-])CCN(CC(=O)[O-])CCN(CC(=O)[O-])CC2)cc1C(C)C.[177Lu+3]` (mixture of isomers), the tracer uptake was 0.07 %ID/g (HT-29 tumour model; host not given, pancreas; 72 h, tumour-bearing).

Repeated from above:
With `Cc1nc(N)nc2c1C(=O)N[C@@H](c1ccc(F)cc1-c1cccc(O[11CH3])n1)C2` the SUV was 0.6 ± 0.1 (radioligand, ex vivo biodistribution; mouse, MDA-MB-231 xenograft, tumour; 60 min p.i.).
`O=C1C2CC3CC1CC(C(=O)N1CCN(c4ccc([N+](=O)[O-])c5ncccc45)CC1)(C3)C2`: “revertant colony count” 7 colonies/well (Salmonella typhimurium; Ames test; TA1535; 0.02 µg/well, without S9 activation).
